Results from different studies.
Each line is one published result; not all experiments were run side by side.
Target: Serine/threonine-protein kinase Sgk1 (SGK1, Homo sapiens, UniProt O00141)
One construct used (O00141 1-431): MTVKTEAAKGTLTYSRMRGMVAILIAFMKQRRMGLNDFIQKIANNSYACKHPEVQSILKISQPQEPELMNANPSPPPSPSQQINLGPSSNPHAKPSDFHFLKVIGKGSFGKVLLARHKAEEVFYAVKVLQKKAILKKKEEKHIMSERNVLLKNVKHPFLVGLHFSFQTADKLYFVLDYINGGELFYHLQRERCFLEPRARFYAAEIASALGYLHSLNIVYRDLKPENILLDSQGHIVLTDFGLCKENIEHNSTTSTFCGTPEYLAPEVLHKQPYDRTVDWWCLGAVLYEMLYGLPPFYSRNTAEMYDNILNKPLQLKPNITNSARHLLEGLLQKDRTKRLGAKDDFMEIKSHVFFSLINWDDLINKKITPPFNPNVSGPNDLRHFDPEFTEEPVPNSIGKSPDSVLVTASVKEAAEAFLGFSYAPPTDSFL

SMILES | test | conditions | scale | measurement | result
Cc1cc(Nc2cc(N3CCN(C)CC3)nc(Sc3ccc(NC(=O)C4CC4)cc3)n2)[nH]n1 | kinase activity, KinaseProfiler | 0.03 µM, species human | reference: control | remaining activity | 104%
CNc1ncc2c(/C=C/C(=O)N3CCC(OC)CC3)nn(Cc3cccc(C(F)(F)F)c3)c2n1 | kinase activity, inhibitor | 1 µM | reference: untreated control | remaining activity | 92%
CC(C)[C@H](NC(=O)c1cc(-c2cnn3cc(-c4ccc(OCCN5CCCCC5)cc4)cnc23)cs1)C(F)(F)F | radiometric kinase | 15 nM | reference: SGK1 over ULK1 | relative inhibition | 0.0455
COc1cc(-c2cncc3c2CN(C)Cc2cc(N4CCNCC4)ccc2-3)cc(OC)c1OC | kinase activity | 1 µM, human enzyme, with: ATP 10 µM | reference: DMSO control | remaining activity | 118%
c1cnc2ccc(Nc3nc(NC4CC4)c4nc[nH]c4n3)cc2c1 | kinase activity, inhibitor, SelectScreen kinase profiling | 1 µM | reference: control | remaining activity | 95%
O=C(NC1CCC1)c1ccc2nc(-c3cccc(NS(=O)(=O)NCCN4CCCCC4)c3)cn2c1 | enzyme activity | 10 µM | – | remaining activity | 99%
COc1cc(F)ccc1-c1ncnc(Nc2cccc(C[S@](C)(=N)=O)c2)n1 | kinase activity | 10 µM, with: 10 µM ATP | – | remaining activity | 91%
O=C1NC(=O)/C(=C/c2ccc(-c3ccc(F)cc3O)o2)S1 | enzyme activity | 10 µM | – | remaining activity | 59%

For quick reference, copied from above:
SMILES | test | conditions | scale | measurement | result
c1cnc2ccc(Nc3nc(NC4CC4)c4nc[nH]c4n3)cc2c1 | kinase activity, inhibitor, SelectScreen kinase profiling | 1 µM | reference: control | remaining activity | 95%
